Results of several laboratories.
Each line is one published result; not all experiments were run side by side. Several values in a cell are separate wells, animals, samples, runs or records. ± gives the spread as reported.
Chain of UniProt Q15059 (whole entry, looked up): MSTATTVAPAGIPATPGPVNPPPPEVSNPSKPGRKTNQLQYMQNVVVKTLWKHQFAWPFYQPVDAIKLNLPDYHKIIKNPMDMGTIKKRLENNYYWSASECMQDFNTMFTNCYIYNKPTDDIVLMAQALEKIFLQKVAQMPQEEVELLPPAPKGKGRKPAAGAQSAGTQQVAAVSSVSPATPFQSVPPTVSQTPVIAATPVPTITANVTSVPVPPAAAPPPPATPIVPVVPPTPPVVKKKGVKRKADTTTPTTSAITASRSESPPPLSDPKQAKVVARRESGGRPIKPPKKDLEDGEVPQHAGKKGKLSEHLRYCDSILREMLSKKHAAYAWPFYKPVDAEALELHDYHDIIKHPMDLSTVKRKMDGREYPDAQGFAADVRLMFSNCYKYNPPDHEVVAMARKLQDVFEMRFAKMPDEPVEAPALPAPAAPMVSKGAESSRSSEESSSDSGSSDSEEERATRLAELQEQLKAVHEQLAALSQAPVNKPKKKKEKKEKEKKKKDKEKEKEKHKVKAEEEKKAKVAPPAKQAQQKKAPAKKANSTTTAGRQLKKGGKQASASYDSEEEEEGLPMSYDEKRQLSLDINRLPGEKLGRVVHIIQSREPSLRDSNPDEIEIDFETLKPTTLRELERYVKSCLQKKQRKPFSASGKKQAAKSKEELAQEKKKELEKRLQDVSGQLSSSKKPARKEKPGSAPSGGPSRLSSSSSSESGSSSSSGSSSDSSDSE
Chain of UniProt Q92499 (whole entry, looked up): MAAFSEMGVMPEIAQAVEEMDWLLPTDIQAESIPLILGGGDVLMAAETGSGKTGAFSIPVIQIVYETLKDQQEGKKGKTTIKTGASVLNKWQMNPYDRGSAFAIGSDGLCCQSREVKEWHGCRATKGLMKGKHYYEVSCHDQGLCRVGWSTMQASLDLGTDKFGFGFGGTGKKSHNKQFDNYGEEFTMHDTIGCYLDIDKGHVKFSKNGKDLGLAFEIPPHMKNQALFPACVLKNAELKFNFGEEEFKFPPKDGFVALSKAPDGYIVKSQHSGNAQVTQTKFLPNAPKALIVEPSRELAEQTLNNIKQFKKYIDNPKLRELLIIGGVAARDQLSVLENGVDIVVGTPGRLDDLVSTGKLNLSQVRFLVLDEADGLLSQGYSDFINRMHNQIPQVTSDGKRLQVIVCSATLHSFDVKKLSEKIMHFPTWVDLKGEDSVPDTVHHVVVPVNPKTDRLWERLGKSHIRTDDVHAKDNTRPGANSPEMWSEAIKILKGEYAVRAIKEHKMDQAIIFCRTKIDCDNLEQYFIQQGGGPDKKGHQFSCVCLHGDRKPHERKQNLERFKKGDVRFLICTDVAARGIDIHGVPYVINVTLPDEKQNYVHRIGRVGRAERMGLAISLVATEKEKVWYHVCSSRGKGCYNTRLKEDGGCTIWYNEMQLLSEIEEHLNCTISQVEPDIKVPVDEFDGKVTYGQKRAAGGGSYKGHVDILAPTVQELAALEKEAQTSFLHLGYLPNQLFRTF
Chain of UniProt P22736 (whole entry, looked up): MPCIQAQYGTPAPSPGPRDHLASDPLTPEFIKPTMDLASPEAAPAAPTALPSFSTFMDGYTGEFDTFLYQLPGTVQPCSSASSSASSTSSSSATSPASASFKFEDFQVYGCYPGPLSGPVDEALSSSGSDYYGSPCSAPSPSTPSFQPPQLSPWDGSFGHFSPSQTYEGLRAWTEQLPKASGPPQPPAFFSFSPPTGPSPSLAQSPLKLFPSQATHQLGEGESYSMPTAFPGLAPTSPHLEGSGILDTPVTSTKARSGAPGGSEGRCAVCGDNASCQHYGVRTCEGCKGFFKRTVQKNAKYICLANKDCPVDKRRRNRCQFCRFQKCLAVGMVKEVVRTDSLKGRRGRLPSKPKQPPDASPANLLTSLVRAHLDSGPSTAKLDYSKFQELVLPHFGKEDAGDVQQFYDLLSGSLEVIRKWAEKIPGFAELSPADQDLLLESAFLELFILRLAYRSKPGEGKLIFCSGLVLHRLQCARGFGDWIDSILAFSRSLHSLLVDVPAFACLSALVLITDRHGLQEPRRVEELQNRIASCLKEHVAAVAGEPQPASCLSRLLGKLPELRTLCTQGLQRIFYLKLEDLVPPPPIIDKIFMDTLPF
Chain of UniProt P00441 (whole entry, unmodified, looked up): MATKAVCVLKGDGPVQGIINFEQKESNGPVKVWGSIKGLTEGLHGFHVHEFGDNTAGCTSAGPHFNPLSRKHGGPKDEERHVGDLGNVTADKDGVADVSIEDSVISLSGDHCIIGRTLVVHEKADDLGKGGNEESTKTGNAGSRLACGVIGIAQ
Chain of UniProt P40337 (whole entry, looked up): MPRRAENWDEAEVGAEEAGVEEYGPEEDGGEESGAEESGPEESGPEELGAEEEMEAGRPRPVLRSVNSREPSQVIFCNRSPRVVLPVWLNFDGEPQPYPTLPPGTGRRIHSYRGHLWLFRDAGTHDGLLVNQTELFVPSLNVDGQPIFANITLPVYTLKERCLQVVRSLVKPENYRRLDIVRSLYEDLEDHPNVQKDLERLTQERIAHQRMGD
Chain of UniProt Q695T7 (whole entry, looked up): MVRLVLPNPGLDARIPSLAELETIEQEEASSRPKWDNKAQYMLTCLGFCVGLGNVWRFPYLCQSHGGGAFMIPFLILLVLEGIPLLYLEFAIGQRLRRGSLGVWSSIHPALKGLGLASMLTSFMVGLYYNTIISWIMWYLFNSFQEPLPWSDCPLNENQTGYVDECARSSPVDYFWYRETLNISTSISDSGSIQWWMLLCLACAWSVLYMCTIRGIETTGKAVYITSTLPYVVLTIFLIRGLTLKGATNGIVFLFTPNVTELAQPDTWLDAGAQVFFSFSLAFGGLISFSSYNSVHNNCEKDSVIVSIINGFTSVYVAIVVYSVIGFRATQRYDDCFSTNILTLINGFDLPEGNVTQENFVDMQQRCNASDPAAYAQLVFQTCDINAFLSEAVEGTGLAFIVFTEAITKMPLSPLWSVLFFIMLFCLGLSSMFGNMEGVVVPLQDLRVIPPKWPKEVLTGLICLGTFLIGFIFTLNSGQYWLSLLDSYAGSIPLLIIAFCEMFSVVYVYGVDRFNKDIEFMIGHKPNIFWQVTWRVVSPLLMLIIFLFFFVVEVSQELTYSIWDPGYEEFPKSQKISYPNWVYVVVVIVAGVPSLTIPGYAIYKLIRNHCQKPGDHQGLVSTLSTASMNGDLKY
Chain of UniProt Q96SW2 (whole entry, looked up): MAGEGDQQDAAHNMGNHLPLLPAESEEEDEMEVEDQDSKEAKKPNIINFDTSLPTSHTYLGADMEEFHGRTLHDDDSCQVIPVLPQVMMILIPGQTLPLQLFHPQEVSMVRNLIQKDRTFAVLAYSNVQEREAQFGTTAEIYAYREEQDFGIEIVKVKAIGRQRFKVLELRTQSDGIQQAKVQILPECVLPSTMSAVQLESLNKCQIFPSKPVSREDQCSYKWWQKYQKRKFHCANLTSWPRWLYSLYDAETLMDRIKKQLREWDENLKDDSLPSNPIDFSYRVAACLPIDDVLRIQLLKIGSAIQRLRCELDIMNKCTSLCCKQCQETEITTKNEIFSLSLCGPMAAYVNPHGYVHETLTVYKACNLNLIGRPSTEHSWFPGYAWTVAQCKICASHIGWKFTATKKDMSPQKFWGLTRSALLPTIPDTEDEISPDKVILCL
Chain of UniProt P48729 (whole entry, looked up): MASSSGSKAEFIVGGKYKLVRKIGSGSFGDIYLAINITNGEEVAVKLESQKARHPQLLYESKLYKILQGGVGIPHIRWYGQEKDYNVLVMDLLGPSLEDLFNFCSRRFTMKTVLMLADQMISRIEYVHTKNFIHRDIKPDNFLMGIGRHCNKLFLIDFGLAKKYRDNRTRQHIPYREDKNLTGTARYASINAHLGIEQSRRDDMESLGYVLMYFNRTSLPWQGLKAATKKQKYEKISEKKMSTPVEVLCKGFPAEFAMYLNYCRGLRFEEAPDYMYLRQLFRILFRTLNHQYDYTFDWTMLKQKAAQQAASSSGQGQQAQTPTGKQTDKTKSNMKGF
Chain of UniProt Q13946 (whole entry, looked up): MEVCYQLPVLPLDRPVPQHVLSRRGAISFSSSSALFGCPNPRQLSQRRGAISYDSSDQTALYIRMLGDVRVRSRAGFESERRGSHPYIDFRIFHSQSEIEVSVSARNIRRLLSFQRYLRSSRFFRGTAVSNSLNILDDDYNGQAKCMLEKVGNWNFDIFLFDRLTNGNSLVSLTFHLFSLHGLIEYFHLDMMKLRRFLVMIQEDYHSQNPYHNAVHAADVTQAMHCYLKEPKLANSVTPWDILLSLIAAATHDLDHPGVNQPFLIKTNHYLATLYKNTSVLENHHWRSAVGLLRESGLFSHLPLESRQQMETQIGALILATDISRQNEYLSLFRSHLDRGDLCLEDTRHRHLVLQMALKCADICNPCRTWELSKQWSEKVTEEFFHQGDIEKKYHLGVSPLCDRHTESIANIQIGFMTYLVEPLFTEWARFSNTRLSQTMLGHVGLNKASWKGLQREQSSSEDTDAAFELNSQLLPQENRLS

Compound | target or system | assay | system | setting | scale | quantity | value
Cc1cccc(N2CC(C(=O)O)CC2=O)c1 (centres unmarked) | ATP-dependent RNA helicase DDX1 (Homo sapiens, UniProt Q92499) | binding, affinity selection mass spectrometry | – | – | relative to: other proteins in batch | fold enrichment | 1.33
O=C(OCC(O)CO)c1ccccc1Nc1ccnc2cc(Cl)ccc12 (centres unmarked) | human iPSC-derived cardiomyocytes | MyBP-C/MYH ratio, plate-normalised SD score | – | concentration not given, primary screen | direction not given | activity score | 3.9
CCNC(=O)/C=C/c1cccc(Br)c1 | SLC6A19 (Homo sapiens, UniProt Q695T7) | inhibitor, FLIPR membrane potential | CHO-BC cells | 0.3 µM, unit not given | relative to: no inhibitor | remaining transport activity | 0.738
Cn1cc(-c2ccc(-c3cncc(Cl)c3N3CCC4(CCNC4=O)CC3)cc2)cn1 | COLO 205 | gene expression, microarray, item: HIST1H4J mRNA | – | concentration not given, 6 h | relative to: untreated cells | log2 fold change | -2.7
CC(C)C[C@H](NC(=O)C[C@H](O)[C@H](CC(C)C)NC(=O)[C@H](Cc1c[nH]cn1)NC(=O)CNC(=O)[C@@H](NC(=O)[C@H](C)NC(=O)[C@H](Cc1c[nH]c2ccccc12)NC(=O)[C@H](CCC(N)=O)NC(=O)[C@@H](Cc1ccccc1)NC(=O)COCCOCCNC(=O)CCC(C(=O)O)N1CCN(CC(=O)O)CCN(CC(=O)O)CC1)C(C)C)C(N)=O (some centres unmarked) [lutetium-177 labelled] | – | – | female BALB/c nu/nu mice, blood | intravenous, 50 pmol, 1 h | – | tissue uptake | 0.4 ± 0.1 %ID/g
CC(=O)N[C@H](C(=O)N1C[C@H](O)C[C@H]1C(=O)NCc1ccc(-c2scnc2C)cc1)C(C)(C)SCCCCCCNC(=O)C[C@@H]1N=C(c2ccc(Cl)cc2)c2c(sc(C)c2C)-n2c(C)nnc21 | VHL/BRD3, BD2; with Elongin B/C (Homo sapiens, UniProt P40337+Q15059) | ITC | – | 25 °C, PROTAC:Brd3^BD2 | relative to: Kd binary over Kd ternary | cooperativity | 4.3
Cc1cccc(C(=O)Nc2ccc3c(c2)CN(C2CCC(=O)NC2=O)C3=O)c1 (centres unmarked) | Cereblon/Casein kinase I alpha (CSNK1A1/CRBN, Homo sapiens, UniProt P48729+Q96SW2) | degrader, live-cell HiBiT kinetic | HEK293 LgBiT | 10 µM | – | degradation rate constant | 1.8 h⁻¹
N#Cc1ccc2[nH]cc(CCCCN3CCN(c4ccc5oc(C(N)=O)cc5c4)CC3)c2c1 | SLC6A4 (Homo sapiens, UniProt P31645) | serotonin uptake, inhibitor | COS-7 expressing SLC6A4 | 60 min preincubation, with: [3H]5-HT | – | Hill slope | -1.66
CN(C)C(=O)c1cc2cnc(Nc3ccc(N4CCNCC4)cn3)nc2n1C1CCCC1 | PDE7A (Homo sapiens, UniProt Q13946) | HTRF | – | 0.3 to 10 µM | – | enzyme activity | no effect
Cc1cccc(NC(=O)Cn2cc(CO)c3ccccc32)c1 | Sodium channel protein type 8 subunit alpha, C-terminal domain (SCN8A, Homo sapiens, UniProt Q9UQD0) | binder, SPR | – | – | – | kon | 3530 ± 74 M⁻¹ s⁻¹
CCCCCCCC(=O)N[C@H]1CCOC1=O | lactonase (Rhodococcus sp. BH4) | substrate, cresol purple pH indicator | – | pH 8.3, DMSO 5% | – | Km | 11.8 ± 4.1 µM
CC(C)C[C@H](NC(=O)C[C@H](O)[C@H](CC(C)C)NC(=O)[C@H](Cc1c[nH]cn1)NC(=O)CNC(=O)[C@@H](NC(=O)[C@H](C)NC(=O)[C@H](Cc1c[nH]c2ccccc12)NC(=O)[C@H](CCC(N)=O)NC(=O)[C@@H](Cc1ccccc1)NC(=O)COCCOCCNC(=O)CCC(C(=O)O)N1CCN(CC(=O)O)CCN(CC(=O)O)CCN(CC(=O)O)CC1)C(C)C)C(N)=O (some centres unmarked) [lutetium-177 labelled] | – | – | BALB/c nu/nu mice, carcass | 50 pmol, 1 h, with: PA 300 µg | – | tissue uptake | 2.8 ± 0.4 %ID
COCCOCc1ccc(-c2cc3onc(-c4ccccc4)c3c(=O)n2C)cc1 | Nuclear receptor subfamily 4 group A member 1 (NR4A1, Homo sapiens, UniProt P22736) | reporter gene, Gal4 hybrid reporter | – | 1 µM | relative to: vehicle | activation | 1.18 ± 0.15 fold
CCCCCCCCCCOc1cc2c(O)c(C(=O)OCC)cnc2cc1OCC | human iPSC-derived cardiomyocytes | MyBP-C/MYH ratio, plate-normalised SD score | – | concentration not given, primary screen | direction not given | activity score | 3.5
Oc1ccc(/C=C/c2cc(O)cc(O)c2)cc1 | O-methyltransferase (Sorghum bicolor, UniProt A0A1B6PFV1) | ITC | – | concentration not given, with: SAH+ | – | binding stoichiometry | 0.73 ± 0.004
N=C(N)NCCC[C@H](N)C(=O)O | uncharacterized protein (Pelagibacter ubique, UniProt Q4FLC2) | isothermal titration calorimetry | Candidatus Pelagibacter ubique | concentration not given, displacement titration, with: octopine competitor 250 µM | – | binding enthalpy ΔH | -4.46 kcal/mol and -4.47 kcal/mol
[O-][S+]1CCCCS1 (centres unmarked) | SOD1 (Homo sapiens, UniProt P00441, G94A) | LC-MS | human whole blood | 10 µM, 1 h, 37 °C | – | SOD1 monomer fraction | 99%

Excerpt of the above:
Compound | target or system | assay | system | setting | scale | quantity | value
CCNC(=O)/C=C/c1cccc(Br)c1 | SLC6A19 (Homo sapiens, UniProt Q695T7) | inhibitor, FLIPR membrane potential | CHO-BC cells | 0.3 µM, unit not given | relative to: no inhibitor | remaining transport activity | 0.738
CN(C)C(=O)c1cc2cnc(Nc3ccc(N4CCNCC4)cn3)nc2n1C1CCCC1 | PDE7A (Homo sapiens, UniProt Q13946) | HTRF | – | 0.3 to 10 µM | – | enzyme activity | no effect
